Measured values collected from several papers.
A part holds a random share of what one study measured. Several values in a cell are separate wells, animals, samples, runs or records.
Chain of UniProt O15146 (whole entry, looked up): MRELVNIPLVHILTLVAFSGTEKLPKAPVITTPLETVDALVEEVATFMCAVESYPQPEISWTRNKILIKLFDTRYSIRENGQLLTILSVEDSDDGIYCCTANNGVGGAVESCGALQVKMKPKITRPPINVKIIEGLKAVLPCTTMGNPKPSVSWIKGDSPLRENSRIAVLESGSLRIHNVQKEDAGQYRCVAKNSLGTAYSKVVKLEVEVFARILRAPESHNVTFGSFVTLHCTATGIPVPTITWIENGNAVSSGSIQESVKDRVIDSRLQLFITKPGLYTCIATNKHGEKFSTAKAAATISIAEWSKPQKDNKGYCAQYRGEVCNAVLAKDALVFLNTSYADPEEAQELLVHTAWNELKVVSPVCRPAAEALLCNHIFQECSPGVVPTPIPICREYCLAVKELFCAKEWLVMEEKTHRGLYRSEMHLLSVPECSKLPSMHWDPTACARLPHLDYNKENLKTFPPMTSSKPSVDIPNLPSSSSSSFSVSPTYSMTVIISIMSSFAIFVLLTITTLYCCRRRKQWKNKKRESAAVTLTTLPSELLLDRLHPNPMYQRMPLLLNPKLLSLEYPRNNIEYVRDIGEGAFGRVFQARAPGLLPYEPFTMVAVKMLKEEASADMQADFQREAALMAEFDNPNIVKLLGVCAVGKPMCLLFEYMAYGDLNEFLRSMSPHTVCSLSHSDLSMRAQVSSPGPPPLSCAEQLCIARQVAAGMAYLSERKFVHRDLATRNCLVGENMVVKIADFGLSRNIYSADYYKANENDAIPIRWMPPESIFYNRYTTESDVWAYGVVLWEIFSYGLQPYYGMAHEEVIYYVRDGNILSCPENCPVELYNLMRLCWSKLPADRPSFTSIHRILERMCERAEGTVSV
Chain of UniProt Q13153 (whole entry, looked up): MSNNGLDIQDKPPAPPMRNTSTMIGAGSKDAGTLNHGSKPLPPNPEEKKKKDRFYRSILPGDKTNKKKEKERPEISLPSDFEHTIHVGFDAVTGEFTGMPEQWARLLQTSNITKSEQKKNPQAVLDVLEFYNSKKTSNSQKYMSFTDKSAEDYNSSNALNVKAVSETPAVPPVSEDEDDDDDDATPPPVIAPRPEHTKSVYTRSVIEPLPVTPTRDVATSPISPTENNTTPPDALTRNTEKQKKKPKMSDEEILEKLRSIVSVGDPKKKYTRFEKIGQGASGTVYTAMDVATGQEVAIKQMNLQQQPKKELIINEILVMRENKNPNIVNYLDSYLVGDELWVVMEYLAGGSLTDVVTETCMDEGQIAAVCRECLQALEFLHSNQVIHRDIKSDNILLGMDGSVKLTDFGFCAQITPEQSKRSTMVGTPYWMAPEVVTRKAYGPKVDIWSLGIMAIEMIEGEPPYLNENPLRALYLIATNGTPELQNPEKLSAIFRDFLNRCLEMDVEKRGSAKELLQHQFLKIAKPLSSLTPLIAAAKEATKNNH
Chain of UniProt Q9NYL2 (whole entry, looked up): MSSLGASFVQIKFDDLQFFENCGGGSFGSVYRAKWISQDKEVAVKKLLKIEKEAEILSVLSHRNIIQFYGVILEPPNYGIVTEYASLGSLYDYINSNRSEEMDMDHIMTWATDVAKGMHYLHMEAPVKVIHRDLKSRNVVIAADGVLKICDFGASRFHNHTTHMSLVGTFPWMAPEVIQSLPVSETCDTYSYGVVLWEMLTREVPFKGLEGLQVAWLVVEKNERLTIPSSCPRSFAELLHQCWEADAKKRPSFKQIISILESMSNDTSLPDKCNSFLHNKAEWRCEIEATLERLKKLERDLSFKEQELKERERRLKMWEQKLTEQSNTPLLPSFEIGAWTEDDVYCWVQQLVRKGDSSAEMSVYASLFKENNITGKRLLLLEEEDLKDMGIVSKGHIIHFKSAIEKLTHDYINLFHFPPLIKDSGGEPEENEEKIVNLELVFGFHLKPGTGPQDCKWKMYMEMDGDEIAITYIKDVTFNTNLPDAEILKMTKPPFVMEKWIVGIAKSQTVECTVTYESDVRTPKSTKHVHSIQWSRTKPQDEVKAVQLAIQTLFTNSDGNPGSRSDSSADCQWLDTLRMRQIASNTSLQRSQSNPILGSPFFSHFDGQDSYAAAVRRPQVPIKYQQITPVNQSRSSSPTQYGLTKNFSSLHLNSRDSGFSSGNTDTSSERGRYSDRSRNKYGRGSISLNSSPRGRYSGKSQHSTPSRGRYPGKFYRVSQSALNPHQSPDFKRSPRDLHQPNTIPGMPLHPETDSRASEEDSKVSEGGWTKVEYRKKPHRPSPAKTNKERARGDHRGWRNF
Chain of UniProt P08069 (whole entry, looked up): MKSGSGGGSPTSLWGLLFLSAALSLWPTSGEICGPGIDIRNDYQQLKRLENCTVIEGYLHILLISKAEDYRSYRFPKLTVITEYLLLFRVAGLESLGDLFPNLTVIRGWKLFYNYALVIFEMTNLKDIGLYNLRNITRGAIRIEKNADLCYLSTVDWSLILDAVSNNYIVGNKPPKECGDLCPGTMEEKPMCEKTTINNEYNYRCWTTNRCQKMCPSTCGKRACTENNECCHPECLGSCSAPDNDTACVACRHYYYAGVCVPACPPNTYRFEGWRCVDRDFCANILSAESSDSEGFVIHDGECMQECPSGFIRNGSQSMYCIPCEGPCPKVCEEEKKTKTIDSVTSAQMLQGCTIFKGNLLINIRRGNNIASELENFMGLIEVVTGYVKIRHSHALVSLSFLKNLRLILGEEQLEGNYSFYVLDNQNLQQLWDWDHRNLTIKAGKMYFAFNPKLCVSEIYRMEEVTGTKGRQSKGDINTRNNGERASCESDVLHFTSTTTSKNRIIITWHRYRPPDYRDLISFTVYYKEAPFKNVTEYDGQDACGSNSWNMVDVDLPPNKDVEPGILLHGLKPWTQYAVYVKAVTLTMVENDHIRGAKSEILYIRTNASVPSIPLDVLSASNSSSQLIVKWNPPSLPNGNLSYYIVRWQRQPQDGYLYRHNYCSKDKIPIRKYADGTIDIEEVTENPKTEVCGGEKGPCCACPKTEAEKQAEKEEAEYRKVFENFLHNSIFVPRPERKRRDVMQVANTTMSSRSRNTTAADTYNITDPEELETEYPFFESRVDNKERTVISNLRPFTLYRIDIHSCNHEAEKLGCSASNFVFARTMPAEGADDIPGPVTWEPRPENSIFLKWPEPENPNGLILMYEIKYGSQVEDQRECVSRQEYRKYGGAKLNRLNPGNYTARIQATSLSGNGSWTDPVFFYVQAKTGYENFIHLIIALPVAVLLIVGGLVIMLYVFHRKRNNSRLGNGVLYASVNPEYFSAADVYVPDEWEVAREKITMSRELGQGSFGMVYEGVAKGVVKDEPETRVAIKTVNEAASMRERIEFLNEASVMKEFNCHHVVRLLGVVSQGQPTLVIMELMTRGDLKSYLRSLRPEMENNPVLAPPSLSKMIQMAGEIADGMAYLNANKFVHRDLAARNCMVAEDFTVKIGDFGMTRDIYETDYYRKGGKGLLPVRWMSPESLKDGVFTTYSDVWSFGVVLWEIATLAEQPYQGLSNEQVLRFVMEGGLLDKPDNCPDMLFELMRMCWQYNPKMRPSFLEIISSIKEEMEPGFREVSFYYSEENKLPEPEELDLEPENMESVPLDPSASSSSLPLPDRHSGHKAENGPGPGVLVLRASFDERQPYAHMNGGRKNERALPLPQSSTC
Chain of UniProt P49759 (whole entry, looked up): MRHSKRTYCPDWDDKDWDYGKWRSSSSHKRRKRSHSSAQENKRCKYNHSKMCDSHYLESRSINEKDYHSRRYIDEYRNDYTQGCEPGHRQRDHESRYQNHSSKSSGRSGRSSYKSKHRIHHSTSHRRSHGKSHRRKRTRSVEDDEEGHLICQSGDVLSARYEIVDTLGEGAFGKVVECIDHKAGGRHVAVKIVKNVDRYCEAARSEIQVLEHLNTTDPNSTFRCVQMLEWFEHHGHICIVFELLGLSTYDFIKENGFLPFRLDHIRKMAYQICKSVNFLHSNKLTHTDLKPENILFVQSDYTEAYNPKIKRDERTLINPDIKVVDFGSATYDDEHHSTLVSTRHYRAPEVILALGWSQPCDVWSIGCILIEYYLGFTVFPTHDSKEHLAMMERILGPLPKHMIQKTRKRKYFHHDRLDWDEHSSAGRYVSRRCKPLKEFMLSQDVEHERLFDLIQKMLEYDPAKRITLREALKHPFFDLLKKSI
Chain of UniProt Q9HBY8 (whole entry, looked up): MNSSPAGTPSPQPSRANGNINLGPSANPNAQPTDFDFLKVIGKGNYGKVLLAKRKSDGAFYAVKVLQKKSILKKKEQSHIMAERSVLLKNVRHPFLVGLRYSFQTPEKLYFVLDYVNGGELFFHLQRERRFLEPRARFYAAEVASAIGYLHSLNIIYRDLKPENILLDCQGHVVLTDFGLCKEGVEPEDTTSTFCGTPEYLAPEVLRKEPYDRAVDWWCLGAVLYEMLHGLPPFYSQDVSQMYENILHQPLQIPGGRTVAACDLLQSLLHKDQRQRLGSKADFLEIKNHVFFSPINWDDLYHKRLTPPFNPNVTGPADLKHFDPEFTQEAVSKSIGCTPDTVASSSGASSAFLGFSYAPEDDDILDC
Chain of UniProt Q14012 (whole entry, looked up): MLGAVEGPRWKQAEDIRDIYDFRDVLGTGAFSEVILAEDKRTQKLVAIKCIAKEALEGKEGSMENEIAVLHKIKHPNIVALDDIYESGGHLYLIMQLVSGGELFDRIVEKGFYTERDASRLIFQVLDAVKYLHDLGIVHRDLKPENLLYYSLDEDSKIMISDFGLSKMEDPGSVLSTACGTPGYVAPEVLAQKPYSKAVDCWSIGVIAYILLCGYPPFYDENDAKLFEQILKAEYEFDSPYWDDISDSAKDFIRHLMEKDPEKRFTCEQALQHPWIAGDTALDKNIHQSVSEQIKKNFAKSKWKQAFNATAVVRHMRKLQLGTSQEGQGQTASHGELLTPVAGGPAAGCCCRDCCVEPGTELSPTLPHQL

Block 1 — method: CCK-8
Structure (SMILES): CC(C)S(=O)(=O)c1ccc2nccc(Nc3ccc4sc(C5CCCC5)nc4c3)c2c1.Cl
L929 RIPK3-/- reexpressing RIPK3 K51A/R69H; 6.25 µM, added: zVAD — survival: 85.1% and 86.5% and 102% and 92.5%.
For L929 RIPK3-/- reexpressing RIPK3 K51A; 50 µM: survival read 74.6% and 74.8% and 69% and 68.2%.
It gave 91.2% and 109% and 93.1% and 105% for survival (L929 RIPK3-/- reexpressing RIPK3 K51A; 25 µM).
L929 RIPK3-/- reexpressing RIPK3 K51A; 6.25 µM, added: zVAD — survival: 99.4% and 97% and 100% and 95.2%.
The survival was 105% and 101% and 99.9% and 103% and 95.5% (L929 RIPK3-/- reexpressing RIPK3 K51A; 12.5 µM).
L929 RIPK3-/- reexpressing RIPK3 K51A/R69H; 25 µM, added: zVAD — survival: 62.1% and 92.4% and 66% and 61.6%.

Block 2 — cell line: HEK-293T/ACE2; method: Hoechst nuclei count; concentration: concentration not given; time: 16 (unit not given); reference: vehicle
`COc1ccc(CN(C(=O)[C@@H](N)Cc2c(C)cc(C(N)=O)cc2C)[C@@H](C)c2nc(-c3ccccc3)c[nH]2)cc1C(=O)O` gave a viability of 101%.
`C[C@@H]1C[C@H]2[C@@H]3CCC4=CC(=O)C=C[C@]4(C)[C@@]3(Cl)[C@@H](O)C[C@]2(C)[C@@]1(OC(=O)c1ccco1)C(=O)CCl` has a viability of 102%.
`COc1ccc(C[C@@H]2c3cc(OC)c(OC)cc3CC[N@+]2(C)CCC(=O)OCCCCCOC(=O)CC[N@@+]2(C)CCc3cc(OC)c(OC)cc3[C@H]2Cc2ccc(OC)c(OC)c2)cc1OC` gave a viability of 99%.
The viability of `C[C@]1(O)CC[C@H]2[C@@H]3CCC4=CC(=O)CC[C@]4(C)[C@@]3(F)[C@@H](O)C[C@@]21C` is reported as 105%.
For `N#Cc1ccccc1-c1cc(-c2ccccn2)cn(-c2ccccc2)c1=O`, the viability was 98.2%.
The viability of `CC(=O)OCC(=O)[C@@]1(OC(C)=O)[C@@H](C)C[C@H]2[C@@H]3C[C@H](F)C4=CC(=O)C=C[C@]4(C)[C@@]3(F)[C@@H](O)C[C@@]21C` is reported as 106%.
`Cc1cc(/C=C/C#N)cc(C)c1Nc1ccnc(Nc2ccc(C#N)cc2)n1` has a viability of 36.4%.
`CNC1(C)C2CCC(C2)C1(C)C` (centres unmarked) gave a viability of 103%.
With `CC(=O)O[C@H]1Cc2ccccc2N(C(N)=O)c2ccccc21` the viability was 97.4%.
`CCCCC(=O)N(Cc1ccc(-c2ccccc2-c2nnn[nH]2)cc1)[C@H](C(=O)O)C(C)C` gave a viability of 101%.

Block 3 — SMILES: [N-]=[N+]=CC(=O)CC[C@H](N)C(=O)O; host: C57BL/6 CES1-/- mouse, both sexes; route: intravenous; dose: 1 mg/kg
It gave 105% and 100% and 104% and 97% for body weight (day 8).
It gave 85% and 70% and 77% and 78% for body weight (day 16).
day 10 — body weight: 96% and 93% and 92% and 100% and 95%.
day 11 — body weight: 87% and 90% and 91% and 92% and 88% and 93%.

Block 4 — concentration: 0.5 µM
Structure (SMILES): COC[C@H]1OC(=O)c2coc3c2[C@@]1(C)C1=C(C3=O)[C@@H]2CCC(=O)[C@@]2(C)C[C@H]1OC(C)=O
TEC (Homo sapiens, UniProt P42680); enzyme activity, inhibitor; reference: control — remaining activity: 118%.
It gave 94.7% for remaining activity (PRKCQ (Homo sapiens, UniProt Q04759); enzyme activity, inhibitor; reference: control).
The remaining activity was 99% (SGK2 (Homo sapiens, UniProt Q9HBY8); enzyme activity, inhibitor; reference: control).
MAP3K20 (Homo sapiens, UniProt Q9NYL2); enzyme activity, inhibitor; reference: control — remaining activity: 94.3%.
For Cyclin-dependent kinase 2, with cyclin E (CDK2, Homo sapiens, UniProt P24941); enzyme activity, inhibitor; reference: control: remaining activity read 105%.
PRKCZ (Homo sapiens, UniProt Q05513); enzyme activity, inhibitor; reference: control — remaining activity: 99.2%.
The remaining activity was 92.1% (CAMKK1 (Homo sapiens, UniProt Q8N5S9); enzyme activity, inhibitor; reference: control).
The remaining activity was 104% (CAMK1 (Homo sapiens, UniProt Q14012); enzyme activity, inhibitor; reference: control).
The remaining activity was 90.7% (CLK1 (Homo sapiens, UniProt P49759); enzyme activity, inhibitor; reference: control).
For PAK1 (Homo sapiens, UniProt Q13153); enzyme activity, inhibitor; reference: control: remaining activity read 95.3%.
For CSNK1D (Homo sapiens, UniProt P48730); enzyme activity, inhibitor; reference: control: remaining activity read 96.6%.
MUSK (Homo sapiens, UniProt O15146); enzyme activity, inhibitor; reference: control — remaining activity: 94.8%.
The remaining activity was 94.9% (ABL2 (Homo sapiens, UniProt P42684); kinase activity; added: ATP 10 µM; reference: untreated).
It gave 95.4% for remaining activity (PAK6 (Homo sapiens, UniProt Q9NQU5); enzyme activity, inhibitor; reference: control).
IGF1R (Homo sapiens, UniProt P08069); enzyme activity, inhibitor; reference: control — remaining activity: 81.9%.

For quick reference, copied from above (block 2):
`COc1ccc(CN(C(=O)[C@@H](N)Cc2c(C)cc(C(N)=O)cc2C)[C@@H](C)c2nc(-c3ccccc3)c[nH]2)cc1C(=O)O` gave a viability of 101%.
`COc1ccc(C[C@@H]2c3cc(OC)c(OC)cc3CC[N@+]2(C)CCC(=O)OCCCCCOC(=O)CC[N@@+]2(C)CCc3cc(OC)c(OC)cc3[C@H]2Cc2ccc(OC)c(OC)c2)cc1OC` gave a viability of 99%.
`C[C@@H]1C[C@H]2[C@@H]3CCC4=CC(=O)C=C[C@]4(C)[C@@]3(Cl)[C@@H](O)C[C@]2(C)[C@@]1(OC(=O)c1ccco1)C(=O)CCl` has a viability of 102%.
`CCCCC(=O)N(Cc1ccc(-c2ccccc2-c2nnn[nH]2)cc1)[C@H](C(=O)O)C(C)C` gave a viability of 101%.
